Published values collected from several papers.
Each numbered part is a random draw from the data of one study; scales do not carry over between parts. Changes are numbered by the printed parent chain.

Sample 1
Target: Interferon regulatory factor 7, full length, phosphomimetic (IRF7, Homo sapiens, UniProt Q92985, residues 1-503, S101K/S471D/S472D/S475D/S476D/S477D/S483D/S484D/S487D)
Technique: protein-binding microarray
Form: double-stranded DNA, one strand shown
Medium: in vitro
Concentration: 250 nM
Notes: 60-bp whole probe
Added: salmon DNA 0.4 mg/ml
Baseline: random background probes
Direction: higher = stronger binding
Constant ends, left off below: GCCTAGCAC … GTCTTGATTCGCTTGACGCTGCTG
Residues (chain): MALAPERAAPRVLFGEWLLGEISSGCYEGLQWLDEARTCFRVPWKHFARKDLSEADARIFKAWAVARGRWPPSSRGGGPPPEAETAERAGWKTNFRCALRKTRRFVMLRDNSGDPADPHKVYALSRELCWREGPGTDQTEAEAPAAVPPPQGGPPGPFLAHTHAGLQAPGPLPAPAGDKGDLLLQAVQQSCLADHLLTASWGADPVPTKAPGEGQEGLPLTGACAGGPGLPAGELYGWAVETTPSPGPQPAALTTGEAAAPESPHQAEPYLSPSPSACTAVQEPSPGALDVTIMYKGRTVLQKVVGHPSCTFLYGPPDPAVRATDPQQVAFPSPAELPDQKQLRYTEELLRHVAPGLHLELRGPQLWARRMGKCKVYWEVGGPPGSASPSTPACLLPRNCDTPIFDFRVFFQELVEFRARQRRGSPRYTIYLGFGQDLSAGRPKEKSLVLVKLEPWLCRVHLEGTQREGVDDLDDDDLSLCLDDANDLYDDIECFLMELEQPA
Strand | log fluorescence [z-score]
CCAGTTTTGTGTGTGTGTTTGTGCTAG | 0.542
TTAGATTTCGGGTATCGATTTGTGCTA | 3.59
TCACTTTTCTTTACTGAACTGTGCTAG | 1.33
GACGGACTCGGGACTGGGGACGTGCTA | -0.168
TTAGATTACGGGACTGGATTAGTGCTA | 0.0928
TTGTGTCAACTTTCTCTGCTCGTGCTA | 0.053
TTAGGTTTCAGGTATCGGTTAGTGCTA | 3.3
TCAAATTAGTGTTTCCCACTGTGCTAG | 0.852
GACGGTATCGACTTTCAGGACGTGCTA | 0.749
TTAGGTATCGGTCTCGCTTAGTGCTAG | 1.55
GACGGTCTCGGACTGGGGATGTGCTAG | 0.137
GACGGTATAGGGTTTCGGGACGTGCTA | 0.925
TCATCTTCCCCTCTCATACTGTGCTAG | 1.29
GACGGTCTCCTTTTCCTTACGTGCTAG | 1.16
GACGGTTTCGGTATAGGGACGTGCTAG | 10.2
TTAGAGCTGGGGACTGGATTAGTGCTA | -0.702
GACGGTCTCAGTCTCGGGACGTGCTAG | 0.277

Sample 2
Target: Histone acetyltransferase KAT6A, winged helix 2, GST fusion (KAT6A, Homo sapiens, UniProt Q92794, residues 85-181)
Technique: protein binding microarray
Form: double-stranded DNA, one strand shown
Medium: in vitro
Concentration: not given
Notes: 8-mer, flanks averaged, mean of 2 arrays, mostly near background
Baseline: not given
Direction: higher = stronger binding
Residues (chain): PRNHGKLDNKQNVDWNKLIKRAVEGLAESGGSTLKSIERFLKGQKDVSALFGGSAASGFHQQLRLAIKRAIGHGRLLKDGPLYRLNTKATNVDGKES
Strand | E-score
TGTGTGAA | -0.0353
GCAGAATA | -0.0208
CGCCATAA | 0.0792
GAGCCGAC | -0.0421
CGTGCCAG | 0.0111
ACCTTTAG | -0.0711
GTGCAGTA | 0.0378
CCAGGGGC | 0.0803
ACTGATCT | 0.113
ATACGTGG | -0.206
ATTGACCA | -0.252
GCCACACA | 0.136
ACATAGAC | -0.248
CCTAACTA | -0.0332
CAACGCGC | 0.134
AAAGAAGT | -0.0138
CGCACTCA | 0.00838
CCGTTAAC | -0.042
GCGAGACC | 0.136
CAGCCCCC | 0.0287
CGGAGACG | 0.209
GTTGCCAA | -0.0634
CATCTGTC | -0.0903
GGCAAGTA | -0.0212
ATGCCGAG | 0.22

Sample 3
Target: ABI1, truncated, D143A, DHFR fusion (Arabidopsis thaliana)
Technique: DHFR PCA, deep sequencing
Medium: yeast
Notes: methotrexate growth selection, single substitutions
Added: (+)-ABA 58 µM
Baseline: wild-type fitted maximum
Direction: higher = stronger binding
Starting sequence: PYL1, truncated, DHFR fusion (Arabidopsis thaliana); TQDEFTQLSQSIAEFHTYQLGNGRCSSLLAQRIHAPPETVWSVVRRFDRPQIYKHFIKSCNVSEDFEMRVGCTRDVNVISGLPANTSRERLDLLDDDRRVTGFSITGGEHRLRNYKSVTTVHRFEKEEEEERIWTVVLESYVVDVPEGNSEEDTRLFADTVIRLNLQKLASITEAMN
Substitution | relative binding score
G107I | -3.34%
I133Q | 100%
L28V | 83.5%
G148H | 68.9%
K54R | 18.4%
Q19M | 83.4%
D97P | 59.9%
L8P | 25.6%
N61V | 90.2%
L82Q | 29%
R99W | 99.6%
P146N | 24.9%
L20E | 94.6%
R111T | 9.3%
L112M | 82.1%

Sample 4
Target: Ras GTPase-activating protein-binding protein 1, C-terminal RGG region (G3BP1, Homo sapiens, UniProt Q13283)
Sequence of UniProt Q13283 (whole entry, looked up): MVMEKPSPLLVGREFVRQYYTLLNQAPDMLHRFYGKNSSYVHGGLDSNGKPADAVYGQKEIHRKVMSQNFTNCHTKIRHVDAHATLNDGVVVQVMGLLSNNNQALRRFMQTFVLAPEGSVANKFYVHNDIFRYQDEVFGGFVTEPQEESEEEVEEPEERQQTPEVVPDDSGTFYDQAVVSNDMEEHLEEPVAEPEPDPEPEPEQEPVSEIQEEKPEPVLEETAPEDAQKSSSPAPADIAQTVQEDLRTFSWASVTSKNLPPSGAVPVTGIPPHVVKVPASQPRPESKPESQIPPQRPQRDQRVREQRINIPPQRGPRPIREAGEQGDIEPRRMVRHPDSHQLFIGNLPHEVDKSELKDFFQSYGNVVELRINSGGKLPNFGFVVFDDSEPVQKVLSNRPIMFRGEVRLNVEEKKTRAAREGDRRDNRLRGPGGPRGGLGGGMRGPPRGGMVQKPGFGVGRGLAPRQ
Technique: RNA Bind-n-Seq
Form: RNA
Medium: in vitro
Concentration: 1 µM
Notes: whole 134-nt RNA, ends assumed
Added: 150 mM KCl
Baseline: input library
Direction: higher = stronger binding
Constant ends, left off below: GGGAGUUCUACAGUCCGACGAUC … UGGAAUUCUCGGGUGUCAAGG
Strand | log2 enrichment
UCCUCAAGUCCUGUGCUACACAUCGUAUGUACCGAAUCGGCGGGGCGGGCGGAAAGUAUUAUGUUACGCCGUUCGGAUCUGCACUUCCAG | -0.437
UGGGAGGUGGAUUUUGUUUAUUUUUUUAGCUCAUUUCCAGGGGUGGGACUUUUUUUUUAAUAUGUGUCAUGAAUAAAGUUGUUUUUGAAA | 2.95
CCCAUUCCAAGAUUUGCUGUUGGCAUUGUAAUAGGAAGAAAUGGAGAGAUGAUCAAAAAAAUACAAAAUGAUGCUGGUGUUCGCAUUCAG | -1.24
ACCAUGCAGGUGGGCAUCUUUAGGAAGUGGGGCAAGGGGGGGAUAGGGAGGGGGGUAACACUUUGGGAACAGGUGGUCCCAGGUCGUUUC | -0.92
UUCCGGAAGAAGAAGCUCCGAUUUGGCCGGAGCCGGAUCCACGAGUGGGGUCUGUUUGCCAUGGAACCCAUUGCUGCUGACGAGAUGGUC | -1.47
CACAGACAACACGCACCCACACAGACACAGAGGGAAGCGGUUGGGAUGGGGACAGGGUGCACAGCAGGGCGGGGUAGGACCCCAGCCCCU | -0.479
CACAGACAACACGCACCCACACAGACACAGAGGGAAGGGGUUGGGAUGGGGACGGGGUGCACAGCAGGGCGGGGUAGGACCCCAGCCCCU | -0.0343
CAAGUCCUGUGCUACACAUCGUAUGUACCGAAUCGGGAAAAAGGGUGGGAAAGGGAAAGUAUUAUGUUACGCCGUUCGGAUCUGCACUUC | 1.55
UAACUUUAGAGGAGGAUCUGAUGGAUAUGGCAGUGGAGGUGGAUUUGGGGAUGGCUAUAAUGGGUAUGGAGGAGGACCUGGAGGUGGCAA | -0.858
CUGUGCUACACAUCGUAUGUACCGAAUCGGGGAAAAAAAGGGGAAAAAAAGGGAAAAAAAGGAAAGUAUUAUGUUACGCCGUUCGGAUCU | -1.23
UGCUGGCAGCCAAGCAGCAGCAGGAGAUGCUGGCAGCCAAGCGGCAGCAGGAGCUGGAGCAGCAGCGGCAGCGGGAGCAGCAGCGGCAGG | -1.21
CCUGUGCUACACAUCGUAUGUACCGAAUCGGGGUUUGGGGUUUUUUUGGGGUUUUUGGGGAAAGUAUUAUGUUACGCCGUUCGGAUCUGC | 1.12
UCCCAGCCGAGGACGUCGGAUGUCAUCGUCCUUGCUGCUUUGCCACCCCAUUCCCGUCAAUAAAGUGGUUUGAACCCAACCCUGGUGUCG | -0.752
GUCCUGUGCUACACAUCGUAUGUACCGAAUCAAAGUGUGUGUGUGUGUGUGUGUGUAAAAAAGUAUUAUGUUACGCCGUUCGGAUCUGCA | 1.08

Sample 5
Target: CREBRF, bZIP domain (human)
Technique: DHFR protein complementation
Medium: yeast
Notes: single substitutions, most at no-binding floor
Baseline: wild-type JUN-FOS pair
Direction: higher = stronger binding
Starting sequence: JUN, bZIP domain (human); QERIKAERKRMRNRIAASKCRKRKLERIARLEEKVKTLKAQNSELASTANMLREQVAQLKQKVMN; partner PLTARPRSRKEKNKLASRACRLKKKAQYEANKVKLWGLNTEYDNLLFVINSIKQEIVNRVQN
Substitution | binding fitness [natural log]
K39T | -1.42
A49P | -1.5
E33I | -1.42
A29I | -1.26
A29Y | -1.43
Q41T | -1.5
L38H | -1.58
S43T | -1.37
M51I | -1.52
L38E | -1.51
Q55K | -1.28
R30M | -1.51

Sample 6
Target: CCNA2, cyclin fold, Cln2 fusion (human)
Technique: yeast growth competition, sequencing
Medium: yeast
Notes: strong parent motif
Baseline: not given
Direction: higher = stronger binding
Starting sequence: ASZ1 docking peptide (human); GFGFLLFICKLTF; partner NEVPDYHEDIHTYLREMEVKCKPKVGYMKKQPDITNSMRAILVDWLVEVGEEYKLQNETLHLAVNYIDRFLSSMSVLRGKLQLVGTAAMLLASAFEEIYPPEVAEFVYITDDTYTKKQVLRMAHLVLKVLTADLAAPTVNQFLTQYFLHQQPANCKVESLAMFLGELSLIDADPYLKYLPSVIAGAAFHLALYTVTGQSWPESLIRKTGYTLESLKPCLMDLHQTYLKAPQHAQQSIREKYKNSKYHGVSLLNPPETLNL
Substitution | normalised enrichment score
F7A | 1.25
T12A | 1.33
L6A | 1.65
F4A | 1.32
L11A | 1.53
F2A | 1.1

Other studies, line by line
Substance | target | test | system | setting | how to read | endpoint | result
PhoQ, residues 284 288 289 292 302 303 AGCYAI | PhoP, residues 12 14 15 18 19 GHCSL (Escherichia coli, UniProt P23836) | Sort-seq, item: YFP reporter | E. coli | PhoQ-PhoP variant library, added: 10 µM Mg2+ | baseline: high Mg2+ state, higher = stronger signaling | fold induction | 12.9

Excerpt of the above (sample 3):
Substitution | relative binding score
L20E | 94.6%
P146N | 24.9%
L112M | 82.1%
K54R | 18.4%
I133Q | 100%
G148H | 68.9%
N61V | 90.2%
L8P | 25.6%
G107I | -3.34%
D97P | 59.9%
Q19M | 83.4%
L82Q | 29%
